Results gathered from unrelated publications.
Lines come from different studies, so protocols differ. Values joined by “and” are separate records of one study, mostly repeats; a detail may differ. ± gives the spread as reported.
Sequence of UniProt P35030 (whole entry, looked up): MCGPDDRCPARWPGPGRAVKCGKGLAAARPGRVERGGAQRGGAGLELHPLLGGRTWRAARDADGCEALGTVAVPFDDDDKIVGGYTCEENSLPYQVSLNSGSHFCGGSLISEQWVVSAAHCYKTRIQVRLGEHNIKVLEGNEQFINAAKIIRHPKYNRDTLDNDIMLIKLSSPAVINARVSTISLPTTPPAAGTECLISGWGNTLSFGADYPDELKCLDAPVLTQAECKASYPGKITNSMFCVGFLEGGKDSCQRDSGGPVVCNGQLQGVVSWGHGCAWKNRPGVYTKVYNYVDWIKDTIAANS
Sequence of UniProt Q96SW2 (whole entry, looked up): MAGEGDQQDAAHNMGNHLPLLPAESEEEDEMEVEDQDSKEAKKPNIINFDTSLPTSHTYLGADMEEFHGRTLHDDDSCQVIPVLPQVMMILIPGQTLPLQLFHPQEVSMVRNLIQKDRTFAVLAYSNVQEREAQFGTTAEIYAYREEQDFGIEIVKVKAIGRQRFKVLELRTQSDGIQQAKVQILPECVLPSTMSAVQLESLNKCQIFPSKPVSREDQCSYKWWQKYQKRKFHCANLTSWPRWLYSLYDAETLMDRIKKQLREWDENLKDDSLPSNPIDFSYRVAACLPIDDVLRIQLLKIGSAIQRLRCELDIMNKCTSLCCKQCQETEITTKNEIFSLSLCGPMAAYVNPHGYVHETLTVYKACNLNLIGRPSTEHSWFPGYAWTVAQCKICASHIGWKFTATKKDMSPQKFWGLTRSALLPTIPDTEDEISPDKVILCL
Sequence of UniProt P48729 (whole entry, looked up): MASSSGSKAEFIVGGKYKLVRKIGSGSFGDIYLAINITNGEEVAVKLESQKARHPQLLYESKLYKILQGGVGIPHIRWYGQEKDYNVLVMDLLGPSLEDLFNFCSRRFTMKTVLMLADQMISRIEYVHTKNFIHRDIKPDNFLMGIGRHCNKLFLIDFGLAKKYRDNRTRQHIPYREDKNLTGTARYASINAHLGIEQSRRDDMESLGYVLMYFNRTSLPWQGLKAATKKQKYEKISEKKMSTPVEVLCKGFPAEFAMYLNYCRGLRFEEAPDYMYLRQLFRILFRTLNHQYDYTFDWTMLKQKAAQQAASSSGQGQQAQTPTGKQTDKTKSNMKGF

SMILES | tested on | test | system | conditions | how to read | measurement | result
Cc1nn(-c2cccc(N)c2)c(=O)c2cnc(Nc3ccc(N4CCNCC4)cc3)nc12 | Ephrin type-B receptor 2 (EPHB2, Homo sapiens, UniProt P29323) | kinase activity, inhibitor, SelectScreen kinase profiling |  |  |  | IC50 | > 10 µM
CCCCCc1ccc(S(=O)(=O)N2CC2C(=O)OC)cc1 (stereo not drawn) |  |  | mouse, Lewis lung carcinoma | intraperitoneal, 5 mg/kg, 16 doses, day 12 |  | tumour growth inhibition | 71%
Cc1ccc(N(O)/N=N/c2ccc(S(=O)(=O)Nc3nccs3)cc2)cc1 |  | carrageenan-induced paw edema | Wistar rat | oral, 100 mg/kg, 3 h after carrageenan, added: carrageenan 1% subplantar | higher = more edema | paw edema volume | 5.52 ± 0.41 a.u.
COC1OC(C)C(O)C(OC2OC(C)C(O)C(OC3OC(C)C(O)C(OC4OC(C)C(O)C(OS(=O)(=O)O)C4OS(=O)(=O)O)C3OS(=O)(=O)O)C2OS(=O)(=O)O)C1OS(=O)(=O)O (stereo not drawn) |  |  | human plasma | 128 µg/mL | reference: control | thrombin time prolongation | 1 fold
COc1cc(O)ccc1CCC(c1ccc(O)cc1)c1cc2c(c(C)c1O)OC(c1ccc(O)cc1)CC2 (mixture of isomers) |  |  | human blood | 30 µM, added: A23187 |  | 5-HETE level | 294 ± 178 pg/mL
COc1cc(N2CCN(C(=O)C3CCCN3)CC2)ccc1Nc1ncc(Cl)c(Nc2ccccc2P(C)(C)=O)n1 (stereo not drawn) |  |  | nude mice, NCI-H3122 xenograft | oral, 25 mg/kg every two days, day 16 |  | tumour volume | 399 mm3 and 686 mm3 and 454 mm3 and 474 mm3 and 126 mm3
COC1OC(C)C(OS(=O)(=O)O)C(OC2OC(C)C(OS(=O)(=O)O)C(OC3OC(C)C(OS(=O)(=O)O)C(OS(=O)(=O)O)C3OS(=O)(=O)O)C2OS(=O)(=O)O)C1OS(=O)(=O)O (stereo not drawn) |  |  | human plasma | 128 µg/mL | reference: control | thrombin time prolongation | 0.9 fold
Nc1ncc(-c2cc(-c3cnn(CC(F)(F)F)c3)ncc2F)nc1C(=O)NC1CNCC(F)C1 (stereo not drawn) | FGR | KINOMEscan |  | 1 µM | reference: DMSO control | remaining binding | 86%
COC1OC(C)C(O)C(OC2OC(C)C(O)C(OC3OC(C)C(O)C(OS(=O)(=O)O)C3OS(=O)(=O)O)C2OS(=O)(=O)O)C1OS(=O)(=O)O (stereo not drawn) |  |  | human plasma | 128 µg/mL | reference: control | thrombin time prolongation | 0.9 fold
CN1CCC[C@]1(C)/C=C/S(=O)(=O)NC(=O)Nc1c2c(cc3c1CCC3)CCC2 |  |  | human, whole blood ex vivo | 12.5 mg twice daily, day 14, 6 h, multiple ascending dose, added: LPS and ATP |  | IL-1β inhibition | 94.7%
CCc1c(C(=O)Nc2ccc3c(c2)CN(C2CCC(=O)NC2=O)C3=O)[nH]c2c(CN)cccc12 (stereo not drawn) | Cereblon/Casein kinase I alpha (CSNK1A1/CRBN, Homo sapiens, UniProt P48729+Q96SW2) | protein level, degrader, luciferase |  |  |  | DC50 | 0.0178 µM
COc1ccc(C(=O)CCc2cc(C(CCc3ccc(O)cc3OC)c3ccc(O)cc3)c(O)cc2OC)cc1 (racemic) |  |  | human blood | 30 µM, added: A23187 |  | PGE2 level | 38 ± 8 pg/mL
COc1cc2c(NC3CCN(C(C)C)CC3)cc(N3CCOCC3)nc2cc1OCCCN1CCCC1 |  | TMT quantitative proteomics, refers to: GMFB | 5xFAD mice, hippocampus | dose not given |  | normalised protein abundance | 0.0797 and 0.0436 and 0.0452 and 0.0221 and 0.0736 and 0.0521 and 0.034 and 0.0233
CC(C)C[C@H](NC(=O)[C@@H](CCCCNC(=O)[C@@H](Cc1ccccc1)NC(=O)CCCCCNC(=O)CN1CCN(CC(=O)O)CCN(CC(=O)O)CCN(CC(=O)O)CC1)NC(=O)[C@H](Cc1ccc(O)cc1)NC(=O)[C@H](CO)NC(=O)[C@H](Cc1c[nH]c2ccccc12)NC(=O)[C@H](Cc1c[nH]cn1)NC(=O)[C@@H]1CCC(=O)N1)C(=O)N[C@@H](CCCNC(=N)N)C(=O)N1CCC[C@H]1C(=O)NCC(N)=O [indium-111 labelled] |  |  | female athymic nude mice, pancreas | intravenous, 0.037 MBq, 1 h |  | tissue uptake | 0.09 ± 0.03 %ID/g
NC[C@@H](C(=O)Nc1ccc(-c2cn[nH]c2)cc1)c1ccccc1 |  | tonometry | Macaca cyclopis, ocular normotensive | ocular, 0.03%, 24 h |  | IOP | 18.3 mmHg
CC(C)OCCOCc1ccc(OCC(O)CN(N=O)C(C)C)cc1 (stereo not drawn) | Salmonella typhimurium | Ames test | TA98 | 5 µg/plate, 30 % hamster S9 | reference: solvent control | revertant fold increase | 1 fold
COC1CN([C@H]2CC[C@H]([C@@]3(C)Oc4c(Cl)cc(C(=O)NCc5c(SC)cc(C)[nH]c5=O)c(C)c4O3)CC2)C1 |  | RNA-seq, refers to: CCM2L mouse homolog | mouse, HT-1376 xenograft, whole blood | dose not given | reference: vehicle | log2 fold change | 0.0911
O=C(N[C@@H](Cc1ccc(OCCCCC2CCNCC2)cc1)C(=O)O)c1nc2ccccc2o1.O=C(O)C(F)(F)F |  | platelet aggregation, inhibitor, impedance aggregometry | human, whole blood, 1:1 saline | 50 nM, 6 min, 37 °C, added: ADP 20 µM | higher = more aggregation | aggregation impedance AUC | 38.6 a.u. and 31 a.u. and 18.3 a.u. and 41.8 a.u. and 31.8 a.u.
Cc1ncsc1-c1ccc(C(C)NC(=O)C2CC(O)CN2C(=O)C(NC(=O)CCCCCCCCCCN2CCCC(Nc3ncc(Cl)c(Nc4ccccc4S(=O)(=O)C(C)C)n3)C2)C(C)(C)C)cc1 (stereo not drawn) | 22Rv1 | RNA-seq, refers to: ZBED5 mRNA |  | concentration not given | reference: DMSO | log2 fold change | -1.25
CC(=O)[O-].O.O.O.O.[Mn+2].[O-]c1ccc(Br)cc1C=NCCN1CCOCC1 |  | nitric oxide scavenging |  | 160 µM |  | inhibition | 29.4%
COC1OC(C)C(O)C(OC2OC(C)C(O)C(OC3OC(C)C(O)C(OC4OC(C)C(O)C(OC5OC(C)C(O)C(OC6OC(C)C(O)C(OS(=O)(=O)O)C6OS(=O)(=O)O)C5OS(=O)(=O)O)C4OS(=O)(=O)O)C3OS(=O)(=O)O)C2OS(=O)(=O)O)C1OS(=O)(=O)O (stereo not drawn) |  |  | human plasma | 128 µg/mL | reference: control | thrombin time prolongation | 1 fold
Cc1nc(-c2c[nH]c(C(=O)Nc3ncccc3O)c2)cs1 | Trypsin-3 (Homo sapiens, UniProt P35030) | enzyme activity, inhibitor, absorbance |  |  |  | Ki | 47 µM and 46.9 µM
CC(C)(C)NCC(SS(=O)(=O)O)c1ccccc1 (stereo not drawn) |  |  | Swiss Webster mice, Schistosoma mansoni-infected | 100 mg/kg single dose on day 42 post-infection, perfusion day 56 post-infection |  | spleen weight | 0.8 g
COC1OC(C)C(O)C(OC2OC(C)C(O)C(OC3OC(C)C(O)C(OC4OC(C)C(O)C(OC5OC(C)C(O)C(OS(=O)(=O)O)C5OS(=O)(=O)O)C4OS(=O)(=O)O)C3OS(=O)(=O)O)C2OS(=O)(=O)O)C1OS(=O)(=O)O (stereo not drawn) |  |  | human plasma | 128 µg/mL |  | thrombin time | 10.4 ± 0.4 s
C=CC(=O)Nc1cccc(Cn2ncc3cnc(Nc4cnn(CCOC)c4)nc32)c1 | MYLK4 human | binding, KINOMEscan |  | 100 nM | lower = stronger binding | percent of control | 85%
COC1OC(C)C(O)C(OC2OC(C)C(O)C(OC3OC(C)C(O)C(OC4OC(C)C(O)C(OC5OC(C)C(O)C(OC6OC(C)C(O)C(OC7OC(C)C(O)C(OC8OC(C)C(O)C(OC9OC(C)C(O)C(OC%10OC(C)C(O)C(OC%11OC(C)C(O)C(OS(=O)(=O)O)C%11OS(=O)(=O)O)C%10OS(=O)(=O)O)C9OS(=O)(=O)O)C8OS(=O)(=O)O)C7OS(=O)(=O)O)C6OS(=O)(=O)O)C5OS(=O)(=O)O)C4OS(=O)(=O)O)C3OS(=O)(=O)O)C2OS(=O)(=O)O)C1OS(=O)(=O)O (stereo not drawn) |  |  | human plasma | 128 µg/mL |  | thrombin time | 9.2 s
C=C(NC(=O)c1csc(-c2nc3c(cc2O)-c2nc(cs2)C(=O)NC(C(C)O)C(=O)NC(=C(C)OC)c2nc(cs2)C(=O)NC2c4nc(cs4)C(=O)NC(COC(=O)c4c5c6c(cccc6n4O)COC(=O)C(OC4CC(C)(O)C(N(C)C)C(C)O4)C2OC5)c2nc-3cs2)n1)C(N)=O (stereo not drawn) |  |  | female cynomolgus monkey, plasma | intravenous, 3 mg/kg, single dose, infusion |  | Cmax | 19.6 µg/mL

Repeated from above:
SMILES | tested on | test | system | conditions | how to read | measurement | result
COC1OC(C)C(OS(=O)(=O)O)C(OC2OC(C)C(OS(=O)(=O)O)C(OC3OC(C)C(OS(=O)(=O)O)C(OS(=O)(=O)O)C3OS(=O)(=O)O)C2OS(=O)(=O)O)C1OS(=O)(=O)O (stereo not drawn) |  |  | human plasma | 128 µg/mL | reference: control | thrombin time prolongation | 0.9 fold
Nc1ncc(-c2cc(-c3cnn(CC(F)(F)F)c3)ncc2F)nc1C(=O)NC1CNCC(F)C1 (stereo not drawn) | FGR | KINOMEscan |  | 1 µM | reference: DMSO control | remaining binding | 86%
COC1OC(C)C(O)C(OC2OC(C)C(O)C(OC3OC(C)C(O)C(OS(=O)(=O)O)C3OS(=O)(=O)O)C2OS(=O)(=O)O)C1OS(=O)(=O)O (stereo not drawn) |  |  | human plasma | 128 µg/mL | reference: control | thrombin time prolongation | 0.9 fold
CN1CCC[C@]1(C)/C=C/S(=O)(=O)NC(=O)Nc1c2c(cc3c1CCC3)CCC2 |  |  | human, whole blood ex vivo | 12.5 mg twice daily, day 14, 6 h, multiple ascending dose, added: LPS and ATP |  | IL-1β inhibition | 94.7%
